Measurements from different studies.
A part holds a random share of what one study measured. “And” joins repeats or separate records; there may be more than shown.
Chain of UniProt P42336 (whole entry, unmodified, looked up): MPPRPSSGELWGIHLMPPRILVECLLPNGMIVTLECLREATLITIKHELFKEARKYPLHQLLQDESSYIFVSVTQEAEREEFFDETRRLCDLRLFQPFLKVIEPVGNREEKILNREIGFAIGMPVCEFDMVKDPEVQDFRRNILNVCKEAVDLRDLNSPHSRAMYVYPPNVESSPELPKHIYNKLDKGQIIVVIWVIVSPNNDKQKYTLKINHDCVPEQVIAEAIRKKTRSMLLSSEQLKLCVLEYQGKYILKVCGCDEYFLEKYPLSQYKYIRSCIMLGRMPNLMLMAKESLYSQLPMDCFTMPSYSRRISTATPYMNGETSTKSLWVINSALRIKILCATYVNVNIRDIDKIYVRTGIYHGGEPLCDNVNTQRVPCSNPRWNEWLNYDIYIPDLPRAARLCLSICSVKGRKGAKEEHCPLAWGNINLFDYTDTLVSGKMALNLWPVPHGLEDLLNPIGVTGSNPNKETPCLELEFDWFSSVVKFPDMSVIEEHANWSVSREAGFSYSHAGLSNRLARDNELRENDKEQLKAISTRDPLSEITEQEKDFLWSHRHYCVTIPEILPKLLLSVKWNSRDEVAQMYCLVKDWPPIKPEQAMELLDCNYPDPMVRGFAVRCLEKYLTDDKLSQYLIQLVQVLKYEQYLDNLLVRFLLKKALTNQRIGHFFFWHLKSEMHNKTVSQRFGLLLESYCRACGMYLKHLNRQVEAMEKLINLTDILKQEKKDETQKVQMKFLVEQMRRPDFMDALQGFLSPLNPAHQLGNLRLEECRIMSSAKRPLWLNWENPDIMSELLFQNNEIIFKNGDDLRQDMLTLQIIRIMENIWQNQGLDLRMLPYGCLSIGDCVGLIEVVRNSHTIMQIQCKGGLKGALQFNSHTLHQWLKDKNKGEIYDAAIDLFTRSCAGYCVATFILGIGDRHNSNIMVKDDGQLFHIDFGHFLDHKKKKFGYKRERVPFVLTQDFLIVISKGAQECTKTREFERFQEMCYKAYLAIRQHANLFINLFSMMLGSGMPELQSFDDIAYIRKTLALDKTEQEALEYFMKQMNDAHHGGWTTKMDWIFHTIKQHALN
Chain of UniProt P00519 (whole entry, unmodified, looked up): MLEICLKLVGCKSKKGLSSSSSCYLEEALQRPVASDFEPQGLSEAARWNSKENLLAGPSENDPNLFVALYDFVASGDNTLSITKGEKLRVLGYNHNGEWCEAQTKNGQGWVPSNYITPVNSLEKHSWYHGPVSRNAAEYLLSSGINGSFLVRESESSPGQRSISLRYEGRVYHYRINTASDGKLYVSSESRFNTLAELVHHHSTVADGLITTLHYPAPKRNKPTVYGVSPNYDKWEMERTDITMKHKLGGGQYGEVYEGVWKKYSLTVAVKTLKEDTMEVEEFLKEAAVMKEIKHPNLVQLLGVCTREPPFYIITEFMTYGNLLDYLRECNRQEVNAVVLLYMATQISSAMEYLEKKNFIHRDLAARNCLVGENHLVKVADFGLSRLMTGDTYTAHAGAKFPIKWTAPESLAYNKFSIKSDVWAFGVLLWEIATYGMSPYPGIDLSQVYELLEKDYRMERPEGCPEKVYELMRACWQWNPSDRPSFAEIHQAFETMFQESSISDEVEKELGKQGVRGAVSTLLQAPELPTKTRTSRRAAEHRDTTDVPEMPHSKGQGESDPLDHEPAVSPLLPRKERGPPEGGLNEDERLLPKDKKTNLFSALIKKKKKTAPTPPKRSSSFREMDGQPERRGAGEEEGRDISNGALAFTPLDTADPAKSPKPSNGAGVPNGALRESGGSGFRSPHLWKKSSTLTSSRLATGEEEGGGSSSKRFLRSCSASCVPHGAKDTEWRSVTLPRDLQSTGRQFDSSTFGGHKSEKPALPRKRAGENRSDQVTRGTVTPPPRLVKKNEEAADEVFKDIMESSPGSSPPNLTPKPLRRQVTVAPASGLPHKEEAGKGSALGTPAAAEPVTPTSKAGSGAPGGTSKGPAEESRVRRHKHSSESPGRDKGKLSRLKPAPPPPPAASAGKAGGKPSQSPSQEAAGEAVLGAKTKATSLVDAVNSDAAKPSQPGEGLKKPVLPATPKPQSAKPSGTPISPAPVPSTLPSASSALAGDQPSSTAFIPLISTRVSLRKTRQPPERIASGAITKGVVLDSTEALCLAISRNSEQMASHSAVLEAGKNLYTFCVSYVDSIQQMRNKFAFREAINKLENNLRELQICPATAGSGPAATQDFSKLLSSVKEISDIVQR
Chain of UniProt P54762 (whole entry, looked up): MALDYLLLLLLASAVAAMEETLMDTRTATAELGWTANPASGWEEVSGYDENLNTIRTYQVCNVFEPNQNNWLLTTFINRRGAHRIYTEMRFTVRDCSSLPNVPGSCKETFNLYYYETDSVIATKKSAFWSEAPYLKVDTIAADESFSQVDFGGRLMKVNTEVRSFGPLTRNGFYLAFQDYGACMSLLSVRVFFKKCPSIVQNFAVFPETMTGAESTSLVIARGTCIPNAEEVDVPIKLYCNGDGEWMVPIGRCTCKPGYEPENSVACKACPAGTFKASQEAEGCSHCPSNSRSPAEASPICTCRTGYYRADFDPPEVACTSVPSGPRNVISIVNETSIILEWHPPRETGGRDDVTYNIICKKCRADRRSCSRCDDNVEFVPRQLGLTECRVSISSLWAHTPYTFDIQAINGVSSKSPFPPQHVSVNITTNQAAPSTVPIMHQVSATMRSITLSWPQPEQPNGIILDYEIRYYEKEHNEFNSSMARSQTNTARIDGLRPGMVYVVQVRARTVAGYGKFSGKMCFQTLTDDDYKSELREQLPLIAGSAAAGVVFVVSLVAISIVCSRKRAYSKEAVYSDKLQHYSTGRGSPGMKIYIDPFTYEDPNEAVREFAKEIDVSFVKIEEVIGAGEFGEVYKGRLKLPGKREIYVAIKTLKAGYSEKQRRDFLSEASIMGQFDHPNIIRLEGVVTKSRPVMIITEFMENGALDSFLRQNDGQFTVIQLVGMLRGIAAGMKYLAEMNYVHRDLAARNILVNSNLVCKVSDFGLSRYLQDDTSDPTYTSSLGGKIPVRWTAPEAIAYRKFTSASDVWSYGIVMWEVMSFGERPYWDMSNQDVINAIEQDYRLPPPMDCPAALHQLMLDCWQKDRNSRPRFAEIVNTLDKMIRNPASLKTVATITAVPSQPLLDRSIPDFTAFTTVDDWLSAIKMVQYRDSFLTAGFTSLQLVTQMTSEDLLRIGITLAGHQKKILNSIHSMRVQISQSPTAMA
Chain of UniProt O95747 (whole entry, looked up): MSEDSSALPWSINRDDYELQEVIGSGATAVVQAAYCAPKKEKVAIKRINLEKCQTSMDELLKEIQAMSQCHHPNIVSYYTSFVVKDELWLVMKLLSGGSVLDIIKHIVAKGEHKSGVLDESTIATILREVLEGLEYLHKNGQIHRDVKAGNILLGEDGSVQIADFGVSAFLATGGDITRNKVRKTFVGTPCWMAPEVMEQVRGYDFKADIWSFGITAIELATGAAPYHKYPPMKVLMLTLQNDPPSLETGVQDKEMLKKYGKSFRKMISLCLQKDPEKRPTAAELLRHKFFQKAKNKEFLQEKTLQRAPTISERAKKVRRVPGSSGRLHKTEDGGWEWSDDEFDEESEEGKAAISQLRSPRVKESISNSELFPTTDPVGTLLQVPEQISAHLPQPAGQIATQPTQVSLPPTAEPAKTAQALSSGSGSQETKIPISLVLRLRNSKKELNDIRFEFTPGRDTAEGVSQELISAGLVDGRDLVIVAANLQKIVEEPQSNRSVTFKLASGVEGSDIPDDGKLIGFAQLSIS
Chain of UniProt Q15418 (whole entry, looked up): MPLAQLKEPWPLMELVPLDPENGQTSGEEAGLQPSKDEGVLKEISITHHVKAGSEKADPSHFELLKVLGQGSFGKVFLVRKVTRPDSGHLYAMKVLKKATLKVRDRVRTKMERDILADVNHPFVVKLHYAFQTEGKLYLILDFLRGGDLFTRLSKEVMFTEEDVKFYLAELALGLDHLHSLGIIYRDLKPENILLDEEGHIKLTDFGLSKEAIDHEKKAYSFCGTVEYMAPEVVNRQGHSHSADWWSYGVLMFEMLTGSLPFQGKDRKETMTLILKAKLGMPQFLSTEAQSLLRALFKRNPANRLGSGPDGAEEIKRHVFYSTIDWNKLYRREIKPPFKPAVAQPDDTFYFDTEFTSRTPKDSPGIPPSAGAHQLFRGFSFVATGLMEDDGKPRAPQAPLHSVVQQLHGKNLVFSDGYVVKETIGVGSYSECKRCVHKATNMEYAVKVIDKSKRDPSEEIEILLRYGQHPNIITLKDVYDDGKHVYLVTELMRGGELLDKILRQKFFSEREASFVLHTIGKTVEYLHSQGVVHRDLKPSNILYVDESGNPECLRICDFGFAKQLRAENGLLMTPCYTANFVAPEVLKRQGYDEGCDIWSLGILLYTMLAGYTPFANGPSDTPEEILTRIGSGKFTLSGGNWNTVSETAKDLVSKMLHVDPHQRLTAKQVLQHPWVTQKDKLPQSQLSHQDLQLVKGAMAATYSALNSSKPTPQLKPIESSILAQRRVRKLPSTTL
Chain of UniProt P06493 (whole entry, looked up): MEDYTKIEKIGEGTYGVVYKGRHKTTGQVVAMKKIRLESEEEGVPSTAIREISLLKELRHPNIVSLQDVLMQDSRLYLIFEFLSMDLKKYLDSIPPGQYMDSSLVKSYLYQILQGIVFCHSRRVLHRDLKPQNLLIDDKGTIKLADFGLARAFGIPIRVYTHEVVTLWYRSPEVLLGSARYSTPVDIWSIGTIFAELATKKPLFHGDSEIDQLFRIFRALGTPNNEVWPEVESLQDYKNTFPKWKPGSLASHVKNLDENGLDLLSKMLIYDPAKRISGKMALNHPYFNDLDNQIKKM

Block 1 — technique: competition with immobilised ligand; concentration: 1 µM
SMILES: CC(=O)N1CCC(c2ccc(C(=O)NC3=NCCN3)cc2C(F)(F)F)CC1
target	effect on	remaining binding
PIK3CA (Homo sapiens, UniProt P42336, C420R)	cell-free assay	93%
ACVR1 (Homo sapiens, UniProt Q04771)	cell-free assay	100%
OXSR1 (Homo sapiens, UniProt O95747)	cell-free assay	100%
PIK3CA (Homo sapiens, UniProt P42336)	cell-free assay	100%
MAP4K4 (Homo sapiens, UniProt O95819)	cell-free assay	100%
PAK3 (Homo sapiens, UniProt O75914)	cell-free assay	100%
NTRK1 (Homo sapiens, UniProt P04629)	cell-free assay	100%
EGFR (Homo sapiens, UniProt P00533)	cell-free assay	100%
Tyrosine-protein kinase JAK1, JH1 (JAK1, Homo sapiens, UniProt P23458)	cell-free assay	100%
MAPK13 (Homo sapiens, UniProt O15264)	cell-free assay	75%
MAP2K3 (Homo sapiens, UniProt P46734)	cell-free assay	87%
NEK9 (Homo sapiens, UniProt Q8TD19)	cell-free assay	100%
MARK3 (Homo sapiens, UniProt P27448)	cell-free assay	100%
Ribosomal protein S6 kinase alpha-1, N-terminal kinase domain (RPS6KA1, Homo sapiens, UniProt Q15418)	cell-free assay	100%
TLK1 (Homo sapiens, UniProt Q9UKI8)	cell-free assay	100%
MAP2K5 (Homo sapiens, UniProt Q13163)	cell-free assay	92%
RET (Homo sapiens, UniProt P07949, V804L)	cell-free assay	100%
Tyrosine-protein kinase ABL1, phosphorylated (ABL1, Homo sapiens, UniProt P00519, E255K)	binding	82%
MAPK12 (Homo sapiens, UniProt P53778)	cell-free assay	55%
MAPK15 (Homo sapiens, UniProt Q8TD08)	cell-free assay	100%
MAP3K10 (Homo sapiens, UniProt Q02779)	cell-free assay	100%

Block 2 — cell line: A-375; concentration: 100 µM; time: 18 h
SMILES	viability
Cc1nnc(NS(=O)(=O)c2ccc(N)cc2)s1	97.4%
NC(=O)CC[C@H](N)C(=O)O	100%
COc1ccc([C@@H]2OC[C@H]3[C@@H]2CO[C@@H]3c2ccc(O[C@@H]3O[C@H](CO)[C@@H](O)[C@H](O)[C@H]3O)c(OC)c2)cc1OC	103%
CO[C@H]1O[C@@H]2O[C@@]3(C)CC[C@H]4[C@H](C)CC[C@@H]([C@H]1C)[C@@]24OO3	68.1%
CCN(CC)CCOCCOC(=O)C(CC)(CC)c1ccccc1	83.7%
CC(=O)OCC(=O)[C@@]1(O)CC[C@H]2[C@@H]3CCC4=CC(=O)CC[C@]4(C)[C@H]3[C@@H](O)C[C@@]21C	92.1%
Cn1c(=O)c2c(ncn2CC(=O)O)n(C)c1=O	106%

Block 3 — effect on: enzyme activity; action: inhibitor; concentration: 0.5 µM; reference: control
SMILES: Cc1cncc2cccc(S(=O)(=O)N3CCCN(C(=O)CN)C[C@@H]3C)c12
target	remaining activity
CAMK2B (Homo sapiens, UniProt Q13554)	92.4%
HIPK4 (Homo sapiens, UniProt Q8NE63)	91.1%
DYRK3 (Homo sapiens, UniProt O43781)	107%
RPS6KA5 (Homo sapiens, UniProt O75582)	100%
EPHB1 (Homo sapiens, UniProt P54762)	88.7%
Cyclin-dependent kinase 1, with cyclin B (CDK1, Homo sapiens, UniProt P06493)	96.9%
MAPKAPK3 (Homo sapiens, UniProt Q16644)	98.8%

Block 4 — technique: linear regression of PRP log k'
SMILES	logD (1,9-decadiene/water)
Cc1ncsc1-c1ccc(CNC(=O)[C@@H]2C[C@@H](O)CN2C(=O)[C@@H](NC(=O)CCCCCOC(=O)CC(c2ccccc2)c2ccccc2)C(C)(C)C)cc1	0.955
Cc1ncsc1-c1ccc(CNC(=O)[C@@H]2C[C@@H](O)CN2C(=O)[C@@H](NC(=O)CCCCCOC(=O)CC23C[C@H]4C[C@@H](C2)C[C@@H](C3)C4)C(C)(C)C)cc1	1.85
CCCCOc1ccc(-c2ccc(C(=O)NCCCCCC(=O)N[C@H](C(=O)N3C[C@H](O)C[C@H]3C(=O)NCc3ccc(-c4scnc4C)cc3)C(C)(C)C)cc2)cc1	1.25
COCC(=O)NCCCCCC(=O)N[C@H](C(=O)N1C[C@H](O)C[C@H]1C(=O)NCc1ccc(-c2scnc2C)cc1)C(C)(C)C	-3.27
Cc1ncsc1-c1ccc(CNC(=O)[C@@H]2C[C@@H](O)CN2C(=O)[C@@H](NC(=O)CCCCCNC(=O)C2CCCCC2)C(C)(C)C)cc1	-2.1

Mixed results
Compound	target or system	test	test system	setting	scale	endpoint	result
COc1ccc(-c2c(Nc3ccccn3)[nH]c3c(C4=CCCCC4)c(-c4ccccc4)nn3c2=O)cc1			human, plasma	oral, 200 mg twice daily, cycle 1		AUC(tau) extrapolated fraction	0%
CN1CC[C@H](c2c(O)cc(O)c3c(=O)cc(-c4ccccc4Cl)oc23)[C@H](O)C1	HuT78	trypan blue exclusion		0.05 µM, 48 h	reference: untreated	viability	87.6% and 89.2%

Excerpt of the above (block 4):
SMILES	logD (1,9-decadiene/water)
CCCCOc1ccc(-c2ccc(C(=O)NCCCCCC(=O)N[C@H](C(=O)N3C[C@H](O)C[C@H]3C(=O)NCc3ccc(-c4scnc4C)cc3)C(C)(C)C)cc2)cc1	1.25
Cc1ncsc1-c1ccc(CNC(=O)[C@@H]2C[C@@H](O)CN2C(=O)[C@@H](NC(=O)CCCCCOC(=O)CC(c2ccccc2)c2ccccc2)C(C)(C)C)cc1	0.955
COCC(=O)NCCCCCC(=O)N[C@H](C(=O)N1C[C@H](O)C[C@H]1C(=O)NCc1ccc(-c2scnc2C)cc1)C(C)(C)C	-3.27
Cc1ncsc1-c1ccc(CNC(=O)[C@@H]2C[C@@H](O)CN2C(=O)[C@@H](NC(=O)CCCCCNC(=O)C2CCCCC2)C(C)(C)C)cc1	-2.1
Cc1ncsc1-c1ccc(CNC(=O)[C@@H]2C[C@@H](O)CN2C(=O)[C@@H](NC(=O)CCCCCOC(=O)CC23C[C@H]4C[C@@H](C2)C[C@@H](C3)C4)C(C)(C)C)cc1	1.85
